Results collected from several papers.
Protocols differ between the studies behind these lines. ± marks the error that the study gave.
CA12: Carbonic anhydrase 12 (CA12, Homo sapiens, UniProt O43570)
UniProt O43570, sequence (whole entry, looked up): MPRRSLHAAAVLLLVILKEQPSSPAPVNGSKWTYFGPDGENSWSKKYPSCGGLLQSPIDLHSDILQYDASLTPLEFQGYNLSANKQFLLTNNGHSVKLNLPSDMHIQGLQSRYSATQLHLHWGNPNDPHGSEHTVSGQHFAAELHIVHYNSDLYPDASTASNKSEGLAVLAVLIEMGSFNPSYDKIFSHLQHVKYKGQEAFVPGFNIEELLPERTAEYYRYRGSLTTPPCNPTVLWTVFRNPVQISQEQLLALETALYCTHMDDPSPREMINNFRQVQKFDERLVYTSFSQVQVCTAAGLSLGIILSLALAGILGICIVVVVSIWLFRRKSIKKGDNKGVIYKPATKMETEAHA
HDAC6: Protein deacetylase HDAC6 (HDAC6, Homo sapiens, UniProt Q9UBN7)
UniProt Q9UBN7, sequence (whole entry, looked up): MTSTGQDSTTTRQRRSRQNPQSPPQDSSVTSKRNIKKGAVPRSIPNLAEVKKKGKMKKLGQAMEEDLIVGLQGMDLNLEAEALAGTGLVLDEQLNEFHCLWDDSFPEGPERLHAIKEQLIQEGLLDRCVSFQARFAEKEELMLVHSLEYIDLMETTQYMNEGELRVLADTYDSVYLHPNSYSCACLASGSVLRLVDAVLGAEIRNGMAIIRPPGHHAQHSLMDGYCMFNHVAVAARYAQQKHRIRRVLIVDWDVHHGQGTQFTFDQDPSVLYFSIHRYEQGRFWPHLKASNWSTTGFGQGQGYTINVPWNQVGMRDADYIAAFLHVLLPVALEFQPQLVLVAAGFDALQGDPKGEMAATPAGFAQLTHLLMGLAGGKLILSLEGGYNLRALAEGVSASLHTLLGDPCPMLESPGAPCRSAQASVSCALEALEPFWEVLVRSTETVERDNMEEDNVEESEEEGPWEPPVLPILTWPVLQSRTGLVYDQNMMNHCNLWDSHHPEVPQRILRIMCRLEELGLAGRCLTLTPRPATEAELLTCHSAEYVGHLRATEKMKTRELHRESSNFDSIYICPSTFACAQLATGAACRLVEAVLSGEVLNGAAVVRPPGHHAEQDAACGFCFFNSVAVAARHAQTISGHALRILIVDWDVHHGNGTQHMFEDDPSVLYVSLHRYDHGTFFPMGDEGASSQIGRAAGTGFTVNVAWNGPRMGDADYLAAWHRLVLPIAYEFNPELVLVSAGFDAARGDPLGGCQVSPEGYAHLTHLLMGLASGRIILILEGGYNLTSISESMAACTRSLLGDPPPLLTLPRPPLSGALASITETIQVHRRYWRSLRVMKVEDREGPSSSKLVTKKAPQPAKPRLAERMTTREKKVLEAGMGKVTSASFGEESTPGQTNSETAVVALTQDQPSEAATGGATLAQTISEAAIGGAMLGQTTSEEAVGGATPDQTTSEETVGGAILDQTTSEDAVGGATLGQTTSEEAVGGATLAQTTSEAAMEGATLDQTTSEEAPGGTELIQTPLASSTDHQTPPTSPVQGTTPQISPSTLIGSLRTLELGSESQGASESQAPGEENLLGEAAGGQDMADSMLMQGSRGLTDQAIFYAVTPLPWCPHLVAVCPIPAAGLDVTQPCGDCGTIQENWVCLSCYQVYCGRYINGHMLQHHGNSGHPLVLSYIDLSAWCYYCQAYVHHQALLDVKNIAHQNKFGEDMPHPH
GBA1 R534H: Lysosomal acid glucosylceramidase (GBA1, Homo sapiens, UniProt P04062, R534H)
UniProt P04062, sequence (whole entry, unmodified, looked up): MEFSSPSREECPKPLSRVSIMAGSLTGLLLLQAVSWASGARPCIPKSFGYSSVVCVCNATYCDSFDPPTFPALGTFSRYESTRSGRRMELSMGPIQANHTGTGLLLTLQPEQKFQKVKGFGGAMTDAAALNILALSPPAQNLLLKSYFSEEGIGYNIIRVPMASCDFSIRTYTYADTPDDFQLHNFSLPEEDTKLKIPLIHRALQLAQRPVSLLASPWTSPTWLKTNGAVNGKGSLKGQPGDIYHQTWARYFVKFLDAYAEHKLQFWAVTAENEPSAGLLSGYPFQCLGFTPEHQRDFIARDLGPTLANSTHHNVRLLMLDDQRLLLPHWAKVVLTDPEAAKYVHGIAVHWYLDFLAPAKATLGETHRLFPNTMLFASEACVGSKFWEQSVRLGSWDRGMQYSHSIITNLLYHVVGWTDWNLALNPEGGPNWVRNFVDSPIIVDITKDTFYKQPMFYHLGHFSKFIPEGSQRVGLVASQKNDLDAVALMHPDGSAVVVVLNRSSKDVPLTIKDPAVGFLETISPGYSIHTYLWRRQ
POLL: DNA polymerase lambda (POLL, Homo sapiens, UniProt Q9UGP5)
UniProt Q9UGP5, sequence (whole entry, looked up): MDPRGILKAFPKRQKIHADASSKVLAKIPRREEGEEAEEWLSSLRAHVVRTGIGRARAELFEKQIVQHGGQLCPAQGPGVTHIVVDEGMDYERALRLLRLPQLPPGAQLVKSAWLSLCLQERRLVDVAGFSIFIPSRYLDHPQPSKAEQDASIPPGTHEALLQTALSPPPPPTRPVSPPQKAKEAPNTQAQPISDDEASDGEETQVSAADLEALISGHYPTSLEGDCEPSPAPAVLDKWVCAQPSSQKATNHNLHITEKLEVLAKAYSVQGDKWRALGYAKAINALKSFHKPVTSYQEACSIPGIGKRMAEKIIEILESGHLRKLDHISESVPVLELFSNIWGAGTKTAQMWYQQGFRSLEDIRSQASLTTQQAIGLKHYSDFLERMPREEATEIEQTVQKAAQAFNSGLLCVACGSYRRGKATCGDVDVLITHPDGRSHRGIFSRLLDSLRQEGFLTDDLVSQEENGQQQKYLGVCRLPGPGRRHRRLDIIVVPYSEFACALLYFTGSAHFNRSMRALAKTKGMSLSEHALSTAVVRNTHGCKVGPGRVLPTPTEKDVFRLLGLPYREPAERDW
UniProt P34913, sequence (whole entry, looked up): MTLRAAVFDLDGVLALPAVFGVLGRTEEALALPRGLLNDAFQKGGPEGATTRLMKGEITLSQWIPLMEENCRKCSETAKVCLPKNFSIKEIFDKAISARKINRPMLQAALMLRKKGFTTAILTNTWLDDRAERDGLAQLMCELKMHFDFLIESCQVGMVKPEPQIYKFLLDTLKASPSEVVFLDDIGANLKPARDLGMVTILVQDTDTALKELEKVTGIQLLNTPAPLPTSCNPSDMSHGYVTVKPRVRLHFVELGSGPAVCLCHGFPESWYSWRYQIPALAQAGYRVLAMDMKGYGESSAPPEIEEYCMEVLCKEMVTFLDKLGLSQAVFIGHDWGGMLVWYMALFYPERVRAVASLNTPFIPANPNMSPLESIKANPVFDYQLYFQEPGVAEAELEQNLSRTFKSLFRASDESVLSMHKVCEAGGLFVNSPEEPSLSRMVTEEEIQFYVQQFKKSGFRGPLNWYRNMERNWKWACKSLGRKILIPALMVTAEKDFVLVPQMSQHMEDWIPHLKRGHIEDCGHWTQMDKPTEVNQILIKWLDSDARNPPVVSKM
UniProt P11086, sequence (whole entry, looked up): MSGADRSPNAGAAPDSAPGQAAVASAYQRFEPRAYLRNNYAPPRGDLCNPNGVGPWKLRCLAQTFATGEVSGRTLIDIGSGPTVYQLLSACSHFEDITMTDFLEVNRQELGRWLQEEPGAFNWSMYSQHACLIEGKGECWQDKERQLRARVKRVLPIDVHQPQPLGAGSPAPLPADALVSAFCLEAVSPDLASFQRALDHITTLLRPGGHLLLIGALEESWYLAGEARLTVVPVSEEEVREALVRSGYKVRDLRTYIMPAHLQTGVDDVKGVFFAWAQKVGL
UniProt P07478, sequence (whole entry, looked up): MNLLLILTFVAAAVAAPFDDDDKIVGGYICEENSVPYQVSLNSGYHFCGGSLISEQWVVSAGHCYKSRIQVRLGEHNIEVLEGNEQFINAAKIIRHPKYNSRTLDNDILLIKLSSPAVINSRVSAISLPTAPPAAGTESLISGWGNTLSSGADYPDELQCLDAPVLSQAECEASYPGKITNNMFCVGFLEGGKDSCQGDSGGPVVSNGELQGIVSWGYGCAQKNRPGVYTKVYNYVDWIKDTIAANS
UniProt P28221, sequence (whole entry, looked up): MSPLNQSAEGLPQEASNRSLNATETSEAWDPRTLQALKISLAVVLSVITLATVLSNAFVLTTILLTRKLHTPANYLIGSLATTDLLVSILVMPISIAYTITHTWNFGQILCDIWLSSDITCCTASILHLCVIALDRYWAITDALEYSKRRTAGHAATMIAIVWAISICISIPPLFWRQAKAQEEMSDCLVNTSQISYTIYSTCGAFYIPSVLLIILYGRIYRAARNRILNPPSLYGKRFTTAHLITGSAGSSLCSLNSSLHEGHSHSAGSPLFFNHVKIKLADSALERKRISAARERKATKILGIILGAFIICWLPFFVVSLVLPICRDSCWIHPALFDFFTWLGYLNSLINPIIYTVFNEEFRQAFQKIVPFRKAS

Structure (SMILES)	target	test	conditions	endpoint	value
CCCCCCCCCCCC(=O)NC1CCOC1=O (centres unmarked)	CA12	enzyme activity, inhibitor, stopped-flow		Ki	12900 nM
Cc1cc(C(C)(C)C)ccc1OS(=O)(=O)Oc1cccc(/C=C/C(=O)NO)c1	HDAC6	enzyme activity, inhibitor, fluorescence		Ki	871 nM
CC[C@H](C)[C@@H]1NC(=O)[C@H](Cc2ccccc2C(F)(F)F)NC(=O)CCSCc2cccc(n2)CSCCCNC(=O)[C@H](CCCCCC(=O)NO)NC1=O	HDAC6	enzyme activity, inhibitor, fluorescence		Ki	21 nM
O=[N+]([O-])c1ccc(O[C@@H]2C=C(CO)[C@@H](O)[C@H](O)[C@H]2O)c([N+](=O)[O-])c1	Lysosomal acid glucosylceramidase (GBA1, Homo sapiens, UniProt P04062)	mixed-type inhibitor	with: resorufin β-glucoside	Ki	160 ± 30 nM
O=C1Nc2ccccc2/C1=C1/Nc2ccccc2/C1=N\O	Bifunctional epoxide hydrolase 2 (EPHX2, Homo sapiens, UniProt P34913)	enzyme activity, inhibitor, fluorescence		Ki	78900 nM
OC[C@H]1[C@@H](O)[C@H](O)[C@@H](O)CN1CCCCCOCc1ccccc1-c1ccccc1	GBA1 R534H	inhibitor, 4MU-β-D-glucopyranoside	with: 4MU-β-D-glucopyranoside	IC50	15000 nM
Cc1cc(C(C)(C)C)ccc1OS(=O)(=O)Oc1cncc(C(=O)NO)c1	HDAC6	enzyme activity, inhibitor, fluorescence		Ki	306 nM
OC[C@@H]1[C@@H](O)[C@H](O)[C@@H](O)CN1CCCCCOCc1ccc2ccccc2c1	GBA1 R534H	inhibitor, 4MU-β-D-glucopyranoside	with: 4MU-β-D-glucopyranoside	IC50	1000 nM
O=C(NCCCOP(=O)(O)OP(=O)(O)OP(=O)(O)O)OCC1c2ccccc2-c2ccccc21	POLL	enzyme activity, inhibitor, radiometric		Ki	2200 nM
Cn1ccc2c(N3CCN(CCCCOc4ccc5c(c4)NC(=O)CC5)CC3)cccc21	5-hydroxytryptamine receptor 1D (HTR1D, Homo sapiens, UniProt P28221)	ligand displacement, radioligand		Ki	643 nM
CC[C@@H]1NC(=O)[C@H](CCCNC(=N)N)NC(=O)[C@H](NC(=O)C(C)C)CNC(=O)c2cc(F)c(c(F)c2)N=Nc2c(F)cc(cc2F)C(=O)NCCNC1=O	WD repeat-containing protein 5 (WDR5, Homo sapiens, UniProt P61964)	binding, inhibitor, competitive fluorescence polarization	trans isomer, 405 nm photostationary state	Ki	1100 nM
Nc1ncnc2c1ncn2C1OC(CN(CCCC2CNCc3c2ccc(Cl)c3Cl)CCC(N)C(=O)O)C(O)C1O (mixture of isomers)	Phenylethanolamine N-methyltransferase (PNMT, Homo sapiens, UniProt P11086)	inhibitor, radiometric	20 min, 30 °C, diastereomeric mixture, with: [3H]SAM	Ki	16.3 ± 1.5 nM
N#C[Se]CCCCCCOc1ccc2c(-c3ccccc3)cc(=O)oc2c1	CA12	enzyme activity, inhibitor, stopped-flow		Ki	164 nM
O=C(Nc1cccc(C(=O)N2CCC(c3nc(-c4ccccc4)n[nH]3)CC2)c1)c1ccccc1	FSP1	NADH oxidase activity, inhibitor	pH 7.2, with: NADH varied, no coenzyme Q1	Ki	5410 ± 2000 nM
O=P(O)(O)OP(=O)(O)OP(=O)(O)OCCCCO	POLL	DNA polymerase activity, inhibitor	with: 1 mM Mn2+, poly(dA)/oligo(dT)	Ki	9000 nM
Cc1nc(-c2c[nH]c(C(=O)Nc3ncccc3O)c2)cs1	Trypsin-2 (Homo sapiens, UniProt P07478)	enzyme activity, inhibitor, mixed inhibition model	with: Z-GPR-pNA	Ki	185000 ± 3000 nM
O=C(NO)c1cncc(OS(=O)(=O)Oc2ccc(Oc3ccccc3)cc2)c1	HDAC6	enzyme activity, inhibitor, fluorescence		Ki	268 nM

For quick reference, copied from above:
Structure (SMILES)	target	test	conditions	endpoint	value
Cc1cc(C(C)(C)C)ccc1OS(=O)(=O)Oc1cccc(/C=C/C(=O)NO)c1	HDAC6	enzyme activity, inhibitor, fluorescence		Ki	871 nM
CC[C@H](C)[C@@H]1NC(=O)[C@H](Cc2ccccc2C(F)(F)F)NC(=O)CCSCc2cccc(n2)CSCCCNC(=O)[C@H](CCCCCC(=O)NO)NC1=O	HDAC6	enzyme activity, inhibitor, fluorescence		Ki	21 nM
